# Experimental data from different studies.
# Each line is one published result; not all experiments were run side by side. Numbers after ± are the reported error.
SMILES,test,test system,conditions,how to read,endpoint,result
Cc1nc(N)nc2c1C(=O)N[C@@H](c1ccc(F)cc1-c1cccc(O[11CH3])n1)C2,ex vivo biodistribution,"healthy mice, brain","60 min post-injection, baseline, vehicle pre-treatment",,SUV,2 ± 0.3
CCCCN1C(=O)c2cccc3c(NCCCCCCCCCCN4CCOCC4)ccc(c23)C1=O,,water,pH 6.0,,emission maximum,558 nm
COc1cccc(OC)c1-c1cc(C(=O)NC2(C(=O)O)C3CC4CC(C3)CC2C4)nn1-c1ccc(C(=O)N(C)CCOCCOCCN(C)C(=O)[C@H](CCCCNC(=O)[C@H](CC(C)C)NC(=O)C2OC2C(=O)O)NC(=O)CN2CCN(CC(=O)[O-])CCN(CC(=O)[O-])CCN(CC(=O)[O-])CC2)cc1C(C)C.[177Lu+3] (mixture of isomers),,mouse HT-29 xenograft,"4 h, biodistribution",reference: tumour over spleen,tumour-to-spleen ratio,5.59
CC(C)C[C@H](NC(=O)[C@H](CCCN)NC(=O)CNC(=O)[C@@H](NC(=O)[C@H](C)NC(=O)[C@@H]1CSCSC[C@H](NC(=O)CC[C@H](N)C(=O)O)C(=O)N[C@@H](CC(N)=O)C(=O)N[C@@H]([C@@H](C)O)C(=O)N[C@@H](C)C(=O)N[C@@H]([C@@H](C)O)C(=O)N1)[C@@H](C)O)C(=O)N[C@@H](C)C(=O)N[C@@H](CCC(=O)O)C(=O)N[C@@](C)(Cc1ccccc1)C(=O)N[C@@H](CC(C)C)C(=O)N[C@H](C(=O)N[C@@H](CCCNC(=N)N)C(=O)N[C@@H](CO)C(=O)N[C@@H](CO)C(=O)N[C@@H](CC(N)=O)C(=O)N(C)[C@@H](CC(N)=O)C(=O)N[C@@H](Cc1ccccc1)C(=O)NCC(=O)N1CCC[C@H]1C(=O)N[C@@H](CCCCNC(=O)CC[C@H](NC(=O)CC[C@H](NC(=O)CCCCCCCCCCCCCCCCCCC(=O)O)C(=O)O)C(=O)O)C(=O)N[C@@H](CC(C)C)C(=O)N1CCC[C@H]1C(=O)N1CCC[C@H]1C(=O)N[C@H](C(=O)N[C@@H](CCC(=O)O)C(=O)N[C@H](C(=O)NCC(=O)N[C@@H](CO)C(=O)N[C@@H](CC(N)=O)C(=O)N[C@H](C(=O)N[C@@H](Cc1ccc(O)cc1)C(N)=O)[C@@H](C)O)C(C)C)[C@@H](C)O)C(C)C,,"human, plasma","subcutaneous, 0.12 mg, single dose, healthy volunteers",,Tmax,132 h
O=C(Nc1cnccc1-c1ccc([18F])cc1)c1ccnc(NC(=O)C2CC2)c1,ex vivo gamma counting,"FVB/NJ mice, both sexes, left kidney","intravenous, 120 min, with: tariquidar 15 mg/kg iv",,mean SUV,0.93
CCCC[N+]1=c2cc3c4cc2[O][Mn-2]1(=[C]=O)(=[C]=O)(=[C]=O)[n+]1ccc(cc1)C(=O)Oc1ccccc1OC(=O)c1cc[n+](cc1)[Mn-2](=[C]=O)(=[C]=O)(=[C]=O)([O]3)[N+]=4CCCC,,DMSO/water 8:2,dark,,stability time,≥ 24 h
CCCCN1C(=O)c2cccc3c(NCCCCCN4CCOCC4)ccc(c23)C1=O,,acetonitrile,,,emission maximum,520 nm
COc1cccc(OC)c1-c1cc(C(=O)NC2(C(=O)O)C3CC4CC(C3)CC2C4)nn1-c1ccc(C(=O)N(C)CCCN(C)C(=O)[C@H](CCCCNC(=O)[C@H](CC(C)C)NC(=O)C2OC2C(=O)O)NC(=O)CN2CCN(CC(=O)[O-])CCN(CC(=O)[O-])CCN(CC(=O)[O-])CC2)cc1C(C)C.[177Lu+3] (mixture of isomers),,mouse HT-29 xenograft,"72 h, biodistribution",reference: tumour over spleen,tumour-to-spleen ratio,7.25
O=C(c1ccnc(N2Cc3cn(Cc4ccc(F)cc4)nc3C2)n1)N1CCOCC1,metabolic stability,"rat, liver microsomes",,,half-life,1.78 h
CN([O-])C(=O)CN1CCN(CC(=O)N(C)[O-])CCN(Cc2ccccn2)CC1.[89Zr+4],,"mouse, liver","intravenous, 1 h",,tracer uptake,0.85 %ID/g
CC(C)(O)c1ncc([S@](N)(=O)=NC(=O)Nc2c3c(cc4c2CCC4)CCC3)s1,measured: infections and infestations,healthy human volunteers,"oral, 25 mg twice daily, 14 days, enteric-coated tablet",,subjects with adverse events,13%
Cc1noc(C)c1Cn1cc(N2C(=O)CN(Cc3cccc(O[C@@H]4O[C@H](C(=O)O)[C@@H](O)[C@H](O)[C@H]4O)c3)C2=O)cn1,,"Sprague-Dawley rat, male","oral, 30 mg/kg of parent drug, 4 h",,plasma concentration,1920 ng/mL
CCCCN1C(=O)c2cccc3c(NCCCCCCCCN4CCOCC4)ccc(c23)C1=O,,DMF,,,fluorescence lifetime,10.3 ns
CS(=O)(=O)c1cc(Cl)cc(-c2cc(Cl)c(Cl)cc2Cl)c1Cl,,whole cow milk,100 nM nominal,,dose fraction in milk fat,86.5%
O=C(O)CCCOc1ccc([18F])cc1-c1cc(-c2ccccc2C(F)(F)F)n(-c2ccccc2)n1,,"mouse, urine","intravenous, dose not given, 30 min",,tissue uptake,0.06 ± 0.03 %ID/g
[123I]c1ccc2nc(-c3ccc(-n4ccnn4)nc3)cn2c1,,"male Wistar rat, pancreas","intravenous, 4 MBq, 6 h",,tracer uptake,0.046 %ID/g
CC(C)C[C@H](NC(=O)[C@@H](CCCCNC(=O)[C@@H](Cc1ccccc1)NC(=O)CCCCCCCNC(=O)CN1CCN(CC(=O)O)CCN(CC(=O)O)CCN(CC(=O)O)CC1)NC(=O)[C@H](Cc1ccc(O)cc1)NC(=O)[C@H](CO)NC(=O)[C@H](Cc1c[nH]c2ccccc12)NC(=O)[C@H](Cc1c[nH]cn1)NC(=O)[C@@H]1CCC(=O)N1)C(=O)N[C@@H](CCCNC(=N)N)C(=O)N1CCC[C@H]1C(=O)NCC(N)=O [indium-111 labelled],,"male athymic nude mice, DU-145 prostate cancer xenograft, urine","intravenous, 0.037 MBq, 1 h",,excreted dose,82.2 ± 1.54%
Cc1ccc(=O)n(-c2ccc(O)cc2)c1,,"BALB/c mouse, plasma","oral, 1.0 mmol/kg",,MRT,2.28 ± 0.12 h
Cc1ccc(CN2C(=O)/C(=N\c3ccc(Cl)cc3Br)c3ccccc32)cc1,,"mouse, blood",150 mg/kg,,RDW,15.4 ± 0.17%
O=c1cc(/C=C/c2ccc(N3CCCC3)cc2)oc(/C=C/c2ccc(N3CCCC3)cc2)c1,,acetonitrile,,,radiative rate constant,3.6e+07 s⁻¹
C/C(N)=N/C(=N\S(=O)(=O)c1ccc(C(F)(F)F)cc1)N1C[C@H](c2ccccc2)C(c2ccc(Cl)cc2)=N1,,"male C57BL/6 mouse, plasma","oral, 10 mg/kg",,Cmax,1300 ng/mL
CN(C)C(=O)c1cccc(N2Cc3cn(Cc4ccc(F)cc4Cl)nc3C2)c1,metabolic stability,"rat, liver microsomes",,,half-life,0.617 h
CCCCCCCCCCCCCCCC(=O)N[C@@H](CCC(=O)NCCCC[C@H](NC(=O)[C@H](C)NC(=O)[C@H](C)NC(=O)[C@H](CCC(N)=O)NC(=O)CNC(=O)[C@H](CCC(=O)O)NC(=O)[C@H](CC(C)C)NC(=O)[C@H](Cc1ccc(O)cc1)NC(=O)[C@H](CO)NC(=O)[C@H](CO)NC(=O)[C@@H](NC(=O)[C@H](CC(=O)O)NC(=O)[C@H](CO)NC(=O)[C@@H](NC(=O)[C@H](Cc1ccccc1)NC(=O)[C@@H](NC(=O)CNC(=O)[C@H](CCC(=O)O)NC(=O)[C@H](C)NC(=O)[C@@H](N)Cc1cnc[nH]1)[C@@H](C)O)[C@@H](C)O)C(C)C)C(=O)N[C@@H](CCC(=O)O)C(=O)N[C@@H](Cc1ccccc1)C(=O)N[C@H](C(=O)N[C@@H](C)C(=O)N[C@@H](Cc1c[nH]c2ccccc12)C(=O)N[C@@H](CC(C)C)C(=O)N[C@H](C(=O)N[C@@H](CCCNC(=N)N)C(=O)NCC(=O)N[C@@H](CCCNC(=N)N)C(=O)NCC(=O)O)C(C)C)[C@@H](C)CC)C(=O)O,,"Kunming mouse, plasma","subcutaneous, 50 nmol/kg",,MRT,5.4 ± 0.4 h
CCCCN1C(=O)c2cccc3c(NCCN4CCOCC4)ccc(c23)C1=O,,chloroform,,,emission maximum,496 nm
O=C(Nc1cnccc1-c1ccc([18F])nc1)c1ccnc(NC(=O)C2CC2)c1,,"FVB/NJ mice (both sexes), feces","intravenous, dose not given, 120 min",,SUV,2.02
CN(O)C(=O)CCC(=O)NCCCN(CCCCN(CCCNC(=O)CCC(=O)N(C)O)C(=O)CCC(=O)N(C)O)C(=O)CCC(=O)N(C)O.[89Zr],,"mouse, spleen",1 h,,tracer uptake,0.24 %ID/g
CN1CCC[C@]1(C)/C=C/S(=O)(=O)NC(=O)Nc1c2c(cc3c1CCC3)CCC2,measured: nervous system disorders,human,"oral, 12.5 mg twice daily, 14 days, multiple ascending dose",,subjects with adverse event,0%
Cc1[nH]nc2c1N=C(c1ccccc1Cl)c1cnc(N3CCOCC3)cc1N2,,"nude mouse, HCC1806 xenograft, plasma","oral, 5 mg/kg once daily",,Cmax,110 ng/mL
CCC(CC)CNC(=N)NC(=N)NCCCCCCNC(=N)NC(=N)NCC(CC)CC,metabolic stability,"monkey, liver microsomes",2 µM,,microsomal CLint,16.4 µL/min/mg
COc1cccc(OC)c1-c1cc(C(=O)NC2(C(=O)O)C3CC4CC(C3)CC2C4)nn1-c1ccc(C(=O)N(C)CCCN(C)CCCN(C)C(=O)[C@H](CCCCNC(=O)[C@H](CC(C)C)NC(=O)C2OC2C(=O)O)NC(=O)CN2CCN(CC(=O)[O-])CCN(CC(=O)[O-])CCN(CC(=O)[O-])CC2)cc1C(C)C.[177Lu+3] (mixture of isomers),,mouse HT-29 xenograft,"24 h, biodistribution",reference: tumour over spleen,tumour-to-spleen ratio,12.4
C=CC(=O)Nc1cc(Nc2nccc(-c3c[nH]c4ccccc34)n2)c(OC)cc1N(C)CCN(C)C,storage stability,human dried blood spots,"5 h, on ice, medium QC level",,recovery,82.2%
CCCC[C@H](NC(=O)CNC(=O)CNC(=O)[C@H](CCCCNC(=O)[C@H](CC(=O)O)NC(=O)C(C)c1ccc(CC(C)C)cc1)NC(=O)CN1CCN(CC(=O)O)CCN(CC(=O)O)CCN(CC(=O)O)CC1)C(=O)N[C@H]1CC(=O)NCCCC[C@@H](C(N)=O)NC(=O)[C@H](Cc2c[nH]c3ccccc23)NC(=O)[C@H](CCCNC(=N)N)NC(=O)[C@@H](Cc2ccccc2)NC(=O)[C@H](Cc2c[nH]cn2)NC1=O (some centres unmarked) [lutetium-177 labelled],,"C57 mouse, urine","intravenous, 0.037 MBq, 4 h",,excretion,80.2 ± 2.02%
C=C[C@]1(C)C[C@@H](OC(=O)CSc2ccc(NC(=O)c3ccco3)cc2)[C@]2(C)[C@H](C)CC[C@]3(CCC(=O)[C@H]32)[C@@H](C)[C@@H]1O,,"M. gallisepticum-infected chickens, plasma","intramuscular, 40 mg/kg single dose",,apparent clearance (CL/F),65.7 mL/min/kg
CCCCN1C(=O)c2cccc3c(NCCCCN4CCOCC4)ccc(c23)C1=O,,DMF,,,emission maximum,526 nm
OC1(C(F)(F)F)CCN(c2nc(Nc3ccnc(C(F)(F)F)c3)nc(-c3cccc(C(F)(F)F)n3)n2)C1 (centres unmarked),,monkey,"oral, 1 mg/kg",,AUC(0-inf),6140 ± 725 ng·h/mL
C=CC(=O)Nc1cc(Nc2nccc(-c3cn(C)c4ccccc34)n2)c(OC)cc1N(C)CCNC,storage stability,human dried blood spot,"10 d, on ice, LLOQ level",,recovery,61.6%
c1ccc(CN2Cc3cccc(n3)CN(Cc3ccccn3)Cc3cccc(n3)C2)nc1,"voltammetry, Nernst equation",,Mn(III) complex,,stability constant log β,6.31
Cc1cc(NC(=O)[C@H](O)c2cc(F)cc(F)c2)ccc1-c1cnc(N)c(C(=O)NC(C)C)c1,,"female nude mouse, plasma","oral, 10 mg/kg, single dose",,half-life,2.1 h
C=C(NC(=O)c1csc(-c2nc3c(cc2O)-c2nc(cs2)C(=O)NC(C(C)O)C(=O)NC(=C(C)OC)c2nc(cs2)C(=O)NC2c4nc(cs4)C(=O)NC(COC(=O)c4c5c6c(cccc6n4O)COC(=O)C(OC4CC(C)(O)C(N(C)C)C(C)O4)C2OC5)c2nc-3cs2)n1)C(N)=O (centres unmarked),,"cynomolgus monkey, male, plasma","intravenous infusion, 3 mg/kg, multiple doses, day 7",,Vz/F,1.34 L/kg
COc1cccc(OC)c1-c1cc(C(=O)NC2(C(=O)O)C3CC4CC(C3)CC2C4)nn1-c1ccc(C(=O)NCCNC(=O)[C@H](CCCCNC(=O)[C@H](CC(C)C)NC(=O)C2OC2C(=O)O)NC(=O)CN2CCN(CC(=O)[O-])CCN(CC(=O)[O-])CCN(CC(=O)[O-])CC2)cc1C(C)C.[177Lu+3] (mixture of isomers),,mouse HT-29 xenograft,"72 h, biodistribution",reference: tumour over spleen,tumour-to-spleen ratio,7.22
COCC1CN(C2CCN(c3cc(OC)c(Nc4ncc(Br)c(Nc5ccc6c(c5P(C)(C)=O)OCCO6)n4)cc3C)CC2)C1,phase 1 trial,"human, advanced EGFR-mutant NSCLC","oral, dose not given",,grade ≥3 treatment-related AEs,22.2%

# Repeated from above:
SMILES,test,test system,conditions,how to read,endpoint,result
C/C(N)=N/C(=N\S(=O)(=O)c1ccc(C(F)(F)F)cc1)N1C[C@H](c2ccccc2)C(c2ccc(Cl)cc2)=N1,,"male C57BL/6 mouse, plasma","oral, 10 mg/kg",,Cmax,1300 ng/mL
CN(C)C(=O)c1cccc(N2Cc3cn(Cc4ccc(F)cc4Cl)nc3C2)c1,metabolic stability,"rat, liver microsomes",,,half-life,0.617 h
CCCCCCCCCCCCCCCC(=O)N[C@@H](CCC(=O)NCCCC[C@H](NC(=O)[C@H](C)NC(=O)[C@H](C)NC(=O)[C@H](CCC(N)=O)NC(=O)CNC(=O)[C@H](CCC(=O)O)NC(=O)[C@H](CC(C)C)NC(=O)[C@H](Cc1ccc(O)cc1)NC(=O)[C@H](CO)NC(=O)[C@H](CO)NC(=O)[C@@H](NC(=O)[C@H](CC(=O)O)NC(=O)[C@H](CO)NC(=O)[C@@H](NC(=O)[C@H](Cc1ccccc1)NC(=O)[C@@H](NC(=O)CNC(=O)[C@H](CCC(=O)O)NC(=O)[C@H](C)NC(=O)[C@@H](N)Cc1cnc[nH]1)[C@@H](C)O)[C@@H](C)O)C(C)C)C(=O)N[C@@H](CCC(=O)O)C(=O)N[C@@H](Cc1ccccc1)C(=O)N[C@H](C(=O)N[C@@H](C)C(=O)N[C@@H](Cc1c[nH]c2ccccc12)C(=O)N[C@@H](CC(C)C)C(=O)N[C@H](C(=O)N[C@@H](CCCNC(=N)N)C(=O)NCC(=O)N[C@@H](CCCNC(=N)N)C(=O)NCC(=O)O)C(C)C)[C@@H](C)CC)C(=O)O,,"Kunming mouse, plasma","subcutaneous, 50 nmol/kg",,MRT,5.4 ± 0.4 h
CCCCN1C(=O)c2cccc3c(NCCN4CCOCC4)ccc(c23)C1=O,,chloroform,,,emission maximum,496 nm
